Published values pooled from the literature.
Every numbered part comes from another study and shows a few of its results, in no order. Positions count from the first letter of the parent shown.

Block 1 — method: universal PBM; molecule type: double-stranded DNA, one strand shown; sample: in vitro; tested at: 600 nM; direction: higher = stronger binding
Target: Sal-like protein 4, full length isoform A (SALL4, Homo sapiens, UniProt Q9UJQ4, residues 1-1053)
UniProt Q9UJQ4, sequence (whole entry, looked up): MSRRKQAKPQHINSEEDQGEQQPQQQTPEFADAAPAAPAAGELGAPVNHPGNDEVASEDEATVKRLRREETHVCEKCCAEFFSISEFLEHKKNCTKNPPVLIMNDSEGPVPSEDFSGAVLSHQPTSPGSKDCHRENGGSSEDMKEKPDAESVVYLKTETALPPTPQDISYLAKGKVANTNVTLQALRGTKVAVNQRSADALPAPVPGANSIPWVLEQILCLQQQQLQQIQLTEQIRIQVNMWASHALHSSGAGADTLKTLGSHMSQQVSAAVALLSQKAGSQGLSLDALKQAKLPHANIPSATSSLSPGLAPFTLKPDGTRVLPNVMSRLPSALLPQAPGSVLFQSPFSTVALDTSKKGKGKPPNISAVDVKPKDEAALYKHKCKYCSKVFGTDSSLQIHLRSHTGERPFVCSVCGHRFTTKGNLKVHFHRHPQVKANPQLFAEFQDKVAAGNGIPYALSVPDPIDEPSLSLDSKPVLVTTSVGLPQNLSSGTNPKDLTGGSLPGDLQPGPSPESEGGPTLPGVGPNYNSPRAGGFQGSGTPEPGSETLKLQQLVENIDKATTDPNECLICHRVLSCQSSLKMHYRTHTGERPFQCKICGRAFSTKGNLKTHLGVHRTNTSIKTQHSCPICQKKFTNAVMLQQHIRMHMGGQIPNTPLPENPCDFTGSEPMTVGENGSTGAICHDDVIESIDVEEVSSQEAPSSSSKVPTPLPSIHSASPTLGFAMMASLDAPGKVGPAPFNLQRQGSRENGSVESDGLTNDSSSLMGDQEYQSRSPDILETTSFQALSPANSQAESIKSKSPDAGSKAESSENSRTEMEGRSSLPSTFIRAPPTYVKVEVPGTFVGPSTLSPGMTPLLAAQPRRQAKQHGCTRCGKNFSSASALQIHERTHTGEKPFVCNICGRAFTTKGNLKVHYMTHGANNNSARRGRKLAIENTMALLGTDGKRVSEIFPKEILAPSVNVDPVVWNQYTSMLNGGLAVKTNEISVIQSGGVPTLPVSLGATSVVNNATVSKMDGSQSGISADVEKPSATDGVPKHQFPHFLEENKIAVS
Notes: 8-mer, flanks averaged, mean of replicates
`AAAATCCC` has an E-score of 0.0922.
`GGGAGCCA` gave an E-score of -0.308.
With `GACGGATA` the E-score was -0.0575.
`AGCTCCAG` has an E-score of -0.246.
With `CCGTATGA` the E-score was 0.166.
With `GGAAGGTA` the E-score was 0.0554.
For `GATCCTGC`, the E-score was -0.29.
With `CCTTCACG` the E-score was -0.145.
The E-score of `AGCCCAGA` is reported as -0.231.
`AGACCTCA` gave an E-score of -0.145.
`GGGGAGAC` gave an E-score of -0.296.
For `AAGGCCTC`, the E-score was -0.215.
The E-score of `CTGTGCGA` is reported as 0.0327.
`CAATCCGC` gave an E-score of 0.00363.
The E-score of `GTTCATCA` is reported as 0.106.
For `AGCTCGTA`, the E-score was -0.0349.
`AAAGTGAT` gave an E-score of 0.187.
`CAACTGTG` has an E-score of -0.0988.
For `CTAAGCAA`, the E-score was -0.0406.
`ACAATACA` has an E-score of 0.202.
`AGTCTTAG` has an E-score of -0.0983.
`TCAGAAAA` has an E-score of 0.119.
`CGGAGTTC` gave an E-score of -0.164.
With `GGTTAGAA` the E-score was -0.0154.

Block 2 — target: CREBRF, bZIP domain (human); method: DHFR protein complementation; sample: yeast; reference: wild-type JUN-FOS pair; direction: higher = stronger binding
Notes: single substitutions, most at no-binding floor
Starting sequence: JUN, bZIP domain (human); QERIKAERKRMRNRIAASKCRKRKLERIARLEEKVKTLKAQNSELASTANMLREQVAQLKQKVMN; partner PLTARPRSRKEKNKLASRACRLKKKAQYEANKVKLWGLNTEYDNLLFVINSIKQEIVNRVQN
`L45Q` gave a binding fitness of -1.51 natural log.
`E54R` gave a binding fitness of -1.57 natural log.
`L31P` has a binding fitness of -1.53 natural log.
With `E33F` the binding fitness was -1.23 natural log.
With `K39L` the binding fitness was -1.5 natural log.
For `Q41R`, the binding fitness was -1.47 natural log.
The binding fitness of `N42S` is reported as -1.54 natural log.
`A40W` gave a binding fitness of -1.47 natural log.
`E32Y` gave a binding fitness of -1.48 natural log.
The binding fitness of `E33D` is reported as -1.5 natural log.
`A29F` has a binding fitness of -1.52 natural log.
`R30H` gave a binding fitness of -1.59 natural log.
With `A40L` the binding fitness was -1.47 natural log.
`L59V` gave a binding fitness of -1.46 natural log.
`K34L` has a binding fitness of -1.49 natural log.
`L38C` has a binding fitness of -1.41 natural log.
`T48V` gave a binding fitness of -1.45 natural log.
For `A46R`, the binding fitness was -1.41 natural log.
For `L38T`, the binding fitness was -1.52 natural log.
The binding fitness of `T37A` is reported as -1.46 natural log.
`A29W` gave a binding fitness of -1.56 natural log.

Block 3 — method: RNA Bind-n-Seq; molecule type: RNA; sample: in vitro; tested at: 200 nM; notes: whole 134-nt RNA, ends assumed; together with: 150 mM LiCl; reference: input library; direction: higher = stronger binding; each molecule: 7-deaza-guanosine replaces G
Target: Ras GTPase-activating protein-binding protein 1, full length (G3BP1, Homo sapiens, UniProt Q13283)
UniProt Q13283, sequence (whole entry, looked up): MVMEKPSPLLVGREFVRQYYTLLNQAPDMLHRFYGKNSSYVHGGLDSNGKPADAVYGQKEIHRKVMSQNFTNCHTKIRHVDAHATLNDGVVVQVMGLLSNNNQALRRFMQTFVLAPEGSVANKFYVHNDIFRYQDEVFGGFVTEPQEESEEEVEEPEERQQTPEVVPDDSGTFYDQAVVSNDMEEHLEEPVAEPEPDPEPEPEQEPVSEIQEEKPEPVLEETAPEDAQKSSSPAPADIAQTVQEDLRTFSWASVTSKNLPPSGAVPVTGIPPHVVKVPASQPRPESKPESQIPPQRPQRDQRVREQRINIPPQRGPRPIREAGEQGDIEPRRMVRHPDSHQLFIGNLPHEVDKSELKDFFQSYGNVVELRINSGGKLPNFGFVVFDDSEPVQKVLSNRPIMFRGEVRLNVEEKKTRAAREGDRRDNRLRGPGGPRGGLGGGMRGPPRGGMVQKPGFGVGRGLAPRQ
`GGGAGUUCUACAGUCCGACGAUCCUGUGCUACACAUCGUAUGUACCGAAUCAAACCCCCCCAAAUUUUUUUAAAUUUUUUUAAAAAAGUAUUAUGUUACGCCGUUCGGAUCUGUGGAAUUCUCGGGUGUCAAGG` has a log2 enrichment of 1.1.
`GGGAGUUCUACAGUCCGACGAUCCCUGUGCUACACAUCGUAUGUACCGAAUCAAACCCCCAAACCCCCCCAAACCCCCCCAAAAAAGUAUUAUGUUACGCCGUUCGGAUCUGCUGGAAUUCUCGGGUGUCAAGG` has a log2 enrichment of 0.0444.
For `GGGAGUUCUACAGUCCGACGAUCCCUCAAGUCCUGUGCUACACAUCGUAUGUACCGAAUCGGAAAGGAAAGGAGGAAAGUAUUAUGUUACGCCGUUCGGAUCUGCACUUCCAGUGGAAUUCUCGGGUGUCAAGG`, the log2 enrichment was -0.219.
With `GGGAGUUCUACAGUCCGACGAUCCUCAAGUCCUGUGCUACACAUCGUAUGUACCGAAUCGGUUGGUUGGGGUUGGGGAAAGUAUUAUGUUACGCCGUUCGGAUCUGCACUUCCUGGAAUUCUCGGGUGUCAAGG` the log2 enrichment was -0.694.
For `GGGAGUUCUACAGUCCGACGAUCCCUGUGCUACACAUCGUAUGUACCGAAUCGGGGUUUUUGGGGUUUUUGGGGUUUUUGGGGAAAGUAUUAUGUUACGCCGUUCGGAUCUGCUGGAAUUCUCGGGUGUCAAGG`, the log2 enrichment was 0.604.
The log2 enrichment of `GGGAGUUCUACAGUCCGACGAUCUUCCCAAGAUGGCGGCGGACGUGUCCGUUACUCACCGGCCCCCGCUGAGCCCUAAGUCUGGGGCCGAAGUCGAAGCCGGCGAUGCCGCGGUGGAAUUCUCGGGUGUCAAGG` is reported as -3.14.
With `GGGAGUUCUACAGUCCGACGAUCGCAGGAAGUAAAAACGAAUGGAAAUGCUUCGGAUAGUGGCAGGGGUGGGGGUUGCUAAGGAAAGGGUGGGAUGGGAGUGGGUAAAGAGUUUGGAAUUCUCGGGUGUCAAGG` the log2 enrichment was -0.136.
The log2 enrichment of `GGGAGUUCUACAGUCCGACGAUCCACAGACAACACGCAGCCACACAGACACAGAGGGAAGGGGUUGGGAUGGGGACAGGGUGCACAGCAGGGCGGGGUAGGACCCCAGCCCCUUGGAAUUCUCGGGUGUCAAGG` is reported as 0.701.

Further values, each from its own experiment
With `PhoQ, residues 284 288 289 292 302 303 SLANKL` the fold induction was 19.9 (PhoP, residues 12 14 15 18 19 TQCLL (Escherichia coli, UniProt P23836); Sort-seq, item: YFP reporter; E. coli; PhoQ-PhoP variant library, together with: 10 µM Mg2+; reference: high Mg2+ state, higher = stronger signaling).

A few entries again (block 2):
`E54R` gave a binding fitness of -1.57 natural log.
The binding fitness of `T37A` is reported as -1.46 natural log.
`L38C` has a binding fitness of -1.41 natural log.
`K34L` has a binding fitness of -1.49 natural log.
With `E33F` the binding fitness was -1.23 natural log.
With `A40L` the binding fitness was -1.47 natural log.
